Results from different studies.
“And” joins repeats or separate records; there may be more than shown. ± marks the error that the study gave.

| Compound | test | test system | setting | how to read | endpoint | result |
| --- | --- | --- | --- | --- | --- | --- |
| O=C(N[C@H](Cc1c[nH]c2ccccc12)C(=O)Nc1ccncc1)c1ccc(N2CCN(c3ccc(F)c(F)c3)CC2)cc1F | – | Swiss Webster mouse, female, lung | oral, 50 mg/kg, 8 h, 20% HPβCD vehicle | – | concentration | 1280 nM |
| C=CC(=O)Nc1cc(Nc2nccc(-c3cn(C)c4ccccc34)n2)c(OC)cc1N(C)CCN(C)C | storage stability | human dried blood spots | 5 h, -80 °C, medium QC level | – | recovery | 89.9% |
| C[C@@H](c1ncncc1F)[C@](O)(Cn1cncn1)c1ccc(F)cc1F | item: blurred vision | human | oral, 400 mg | – | drug-related TEAE incidence | 0% |
| COc1ccc2c(=O)n(C)c(-c3ccccc3)nc2c1 | – | Sprague-Dawley rat, male, stomach | oral, 30 mg/kg, 2 h | – | tissue concentration | 125 ng/mL |
| Cl.[2H]C([2H])([2H])CC(=O)c1cnc(NC(=O)C2CC2)cc1Nc1cccc(-c2ncn(C([2H])([2H])[2H])n2)c1OC | median | human | oral, 25 mg single dose, fasted, liquid | – | Tmax | 1 h |
| FC(F)(F)c1ccc(CNc2ccc(Cc3c[nH]c4ncc(Cl)cc34)cn2)cn1 | item: Hypertension | patients with advanced solid tumours, non-TGCT cohort | oral, 1000 mg/day, grade 3 or higher | – | treatment-related adverse events | 0% |
| CC(C)n1c(Nc2cccnc2)nc2cnc(Nc3ccc(N4CCN(C)CC4)cc3)nc21 | item: LDL cholesterol increased | healthy male subjects | oral, 100 mg, study, with: gemfibrozil | – | subjects with adverse event | 7.1% |
| CCc1cc2c(cc1CC)CC(NC[C@H](O)c1ccc(O)c3[nH]c(=O)ccc13)C2 | equilibrium dialysis | rat, lung homogenate | – | – | fraction unbound | 0.0026 |
| CC(C)(C(=O)N1CCOc2c(C#N)cncc2C1)C(F)F | item: renal and urinary disorders | human, both sexes | oral, 20 mg twice daily, 14 days, multiple ascending dose | – | subjects with TEAE | 0% |
| CCn1c(=O)c(-c2cc(NC(=O)Nc3ccccc3)c(F)cc2Br)cc2cnc(NC)cc21 | item: accidental overdose | human, moderate hepatic impairment | oral, 50 mg single dose | – | participants with grade ≥ 3 TEAE | 12.5% |
| Cc1cc(C)c(CNC(=O)c2cc(Cl)c3c(c2C)O[C@@](C)([C@H]2CC[C@H](N(C)C)CC2)O3)c(=O)[nH]1 | item: total radioactivity | male human, urine | oral, 200 mg, 96 h | baseline: dose | cumulative excretion | 15.3% |
| CC(C)C(=O)O[C@H]1[C@H](C)OC(=O)[C@@H]1Cc1ccccc1 | – | Swiss Lake sand sediment, aerobic dark | 20 °C | – | DT50 water | 2.02 days |
| COC(=O)N[C@@H](C)CNc1nccc(-c2cn(C(C)C)nc2-c2cc(Cl)cc(NS(C)(=O)=O)c2F)n1 | – | human, plasma | oral, single dose, with: posaconazole | baseline: compound alone | AUClast geometric mean ratio | 284% |
| COc1cccc(OC)c1-c1cc(C(=O)NC2(C(=O)O)C3CC4CC(C3)CC2C4)nn1-c1ccc(C(=O)N(C)CCCN(C)CCCN(C)C(=O)CN2CCN(CC(=O)[O-])CCN(CC(=O)[O-])CCN(CC(=O)[O-])CC2)cc1C(C)C.[177Lu+3] (stereo not shown) | – | mouse, HT-29 xenograft, muscle | 72 h post injection | – | tissue uptake | 0.08 %ID/g |
| CNC(=O)c1ccc(-c2cnc3ncc(Cc4ccc5ncccc5c4)n3n2)cc1F | – | healthy human subjects | oral, 400 mg, Fatigue, grade 3, all causality, with: rifampicin 600 mg/day | – | subjects with adverse event | 0% |
| Cc1cc(NC2CCN(C(=O)OC3CCN(C(=O)/C=C/CN(C)C)C3)CC2)n2ncc(C(C)C)c2n1 (stereo not shown) | Phase I dose escalation CTCAE v4.0, item: Asthenia | patients with advanced solid tumours | dose not given, TIW dosing any grade | – | patients with adverse event | 46% |
| Cc1ccc([C@@H]2O[C@H](CO)[C@@H](O)[C@H](O)[C@H]2O)cc1Cc1ccc(-c2ccc(F)cc2)s1 | – | Japanese type 2 diabetes patients | 100 mg, day 1, 24 h urine collection | baseline: baseline | urinary chloride excretion change | 48.7 mEq |
| OC[C@H]1O[C@@H](c2ccc(F)c(Cc3cc4ccccc4s3)c2)[C@H](O)[C@@H](O)[C@@H]1O | – | Japanese type 2 diabetes patients, plasma | oral, 100 mg/day, day 1 | – | renal clearance | 1.95 ± 0.445 mL/min |
| C=CC(=O)N1CCC(Oc2cc3c(Nc4ccc(Cl)c(Cl)c4F)ncnc3cc2OC)CC1 | – | Sprague-Dawley rat, male, plasma | oral, 2 mg/kg, with: vehicle pretreatment | – | Vz/F | 2.15 ± 1.01 L/kg |
| O=C(O)CCC(=O)O.[2H]C([2H])([2H])Oc1cc(C)c2[nH]ccc2c1CN1CC[C@@H](C2CC2)C[C@H]1c1ccc(C(=O)O)cc1 | multiple ascending dose | healthy Chinese subjects | 50 mg twice daily | – | subjects with lymphopenia | 12.5% |
| CCCCN(Cc1c(-c2ccccn2)nc2ccc(C)cn12)c1ccc(F)cc1 | – | peritoneal macrophages, Swiss mice | 5 days, 5% fetal calf serum | – | CC50 | 31.6 µM |
| CN1CCC[C@H](CN2c3ccccc3Sc3ccccc32)C1.Cl | – | Wistar rat female, lymph node | oral, 16 mg/kg | – | AUC(0-t) | 50500 ng·h/mL |
| CS(=O)(=O)c1ccc(-c2nc3ccccc3n2CC(=O)N/N=C/c2ccc(Cl)cc2)cc1 | – | rat, stomach | concentration not given, 4 h | baseline: indomethacin | ulcer number | 12.5% |
| COc1ccc2c(c1)CN(C(=O)CCN1CCC(Cc3ccccc3)CC1)CC[S@@+]2[O-] | telemetry | conscious dog | intravenous, 8 mg/kg, 1 h | – | diastolic blood pressure | 91 ± 20 mmHg |
| Cc1ccc(Sc2ccccc2N2CCNCC2)c(C)c1 | – | healthy adult men | oral, 10 mg single, 10 day | – | any adverse event | 0% |
| CC(C)C[C@H](NC(=O)CNC(=O)c1cc(Cl)ccc1Cl)B(O)O | item: Arthralgia | human newly diagnosed multiple myeloma | oral, dose not given, maintenance, grade 3, onset cycle 17 or later | – | treatment-emergent adverse events | 6% |
| CCN1/C(=C/C(C)=O)Sc2ccc(F)cc21 | – | cynomolgus monkey | oral, 10 mg/kg, 2 h post-dose | baseline: pre-dose | heart rate change | 108 ± 20.6% |
| O=C(Nc1cnccc1Cl)N1CCN(Cc2ccc3c(c2)OC(F)(F)O3)CC1 | multiple ascending dose | young men | 25 mg, treatment-emergent adverse events | – | postural dizziness incidence | 0% |

| Compound | test | test system | setting | how to read | endpoint | result |
| --- | --- | --- | --- | --- | --- | --- |
| N#Cc1ccc2c(c1)[C@H]1CCCN(C(=O)c3ccc4[nH]cnc4c3)[C@H]1C2 | – | human, male | 240 mg, day 15 | – | androstenedione level | 6.5 nmol/L |
| O=C(N/N=C/c1ccccc1O)c1ccncc1 | – | ADS buffer | 57 µM, 7 days, -80 °C, long-term storage | – | stability | 98.3% |
| CNCc1ccc(-c2[nH]c3cc(F)cc4c3c2CCNC4=O)cc1 | – | human patients | oral, 360 mg twice daily, all grades | – | malignant neoplasm progression incidence | 12.5% |
| CCCCCN(C)CCC(O)(P(=O)(O)O)P(=O)(O)OP(=O)(O)OC[C@H]1O[C@@H](n2ccc(N)nc2=O)C(F)(F)[C@@H]1O (stereo partly shown) | – | 50% human serum | concentration not given, 37 °C | – | hydrolysis rate | 0.02 h⁻¹ |
| COc1ccnc(C(=O)N[C@H]2COC(=O)[C@H](Cc3ccccc3)[C@@H](O)[C@H](C)OC2=O)c1O | aerobic dark soil incubation | clay loam soil | 20 °C, modelling endpoint | – | DT50 | 17.5 days |
| Cc1nc(-c2ccc(OCC(C)C)c(C#N)c2)sc1C(=O)O | – | KM mouse, chronic hyperuricaemia model | dose not given, day 19 | – | body weight | 37.9 g and 31.8 g and 33.9 g and 41.8 g and 37.7 g and 31.4 g |
| CCc1cc(C(=O)NC)c2nccc(N3CCc4c(cc(Cn5ccnc5)cc4-c4cn(C)nc4C(F)(F)F)C3=O)c2c1 | – | Sprague Dawley rat | oral, 100 mg/kg twice daily, 7 days | baseline: vehicle | heart weight change | -5.73% |
| CC(C)c1nc(N(C)S(C)(=O)=O)nc(-c2ccc(F)cc2)c1/C=C/[C@@H](O)C[C@@H](O)CC(=O)O | item: gastrointestinal disorders | healthy men | oral, dose not given, 8 days, treatment-emergent, crossover trial | – | subjects with adverse event | 0% |
| CO[C@H]1C[C@@H]2CC[C@@H](C)[C@@](O)(O2)C(=O)C(=O)N2CCCC[C@H]2C(=O)O[C@H]([C@H](C)C[C@@H]2CC[C@@H](OC(=O)NCCOCCOCCOCCOCCOCCOCCOCCOCCC(=O)N3CCc4cc(Cn5nc(-c6ccc7oc(N)nc7c6)c6c(N)ncnc65)ccc4C3)[C@H](OC)C2)C[C@@H](O)[C@H](C)/C=C(\C)[C@@H](O)[C@@H](OC)C(=O)[C@H](C)C[C@H](C)/C=C/C=C/C=C/1C | – | human patients, plasma | intravenous, 10 mg, cycle 1 day 1, weekly dosing, 1 h infusion, arithmetic mean | – | AUClast | 491 ng·h/mL |
| N#Cc1ccc2c(c1)[C@H]1CCCN(C(=O)c3ccc4[nH]cnc4c3)[C@H]1C2 | – | human, plasma | oral, 20 mg once daily, day 28 steady state | – | CL/F steady state | 45.9 mL/min |
| NC1(C(=O)N[C@@H](CCO)c2ccc(Cl)cc2)CCN(c2nc[nH]c3nccc2-3)CC1 | – | metastatic CRPC patients | 400 mg b.i.d., any grade, treatment-related, with: enzalutamide 160 mg daily | – | incidence of Arthralgia | 0% |
| CCCOc1ccc(NC(=O)CN2CCN(C)CC2)cc1-c1nc(CC)c(CC)c(=O)[nH]1 | – | healthy Chinese men | 10 mg, with: placebo alcohol | – | head discomfort incidence | 26.7% |
| O=C(Nc1nc2cccc(-c3ccc(CN4CCS(=O)(=O)CC4)cc3)n2n1)C1CC1 | item: chills | human rheumatoid arthritis patients | oral, 200 mg once daily, 4 weeks, regardless of relatedness | – | treatment-emergent adverse events | 0% |
| CCOCc1nc(O)c(-c2nnc(Cc3ccc(Cl)cn3)o2)c(O)c1-c1c(OC)cccc1OC | – | rat, anaesthetised, cannulated, plasma | intravenous infusion, 10 µg/kg/min, 30 min after infusion stop, washout | – | plasma concentration | 859 nM |
| Nc1ncnc2c1ncn2[C@H]1C[C@@H]2OP(=O)(O)OC[C@H]3O[C@@H](n4cnc5c(N)ncnc54)C[C@@H]3OP(=O)(O)OC[C@H]2O1 | – | non-tumor-bearing mice, serum | intravenous, 1 mg/kg, toxicity study | – | total cholesterol | 4.27 ± 1.13 mmol/L |
| COc1ccc([C@@H](O)c2cc(-c3ncnc4cc(N5CCOCC5)ccc34)c(F)cc2Cl)nn1 | – | healthy volunteers, urine | oral, 100 mg, geometric means over treatments | – | renal clearance range | 0.833 to 5.15 mL/min |
| Cn1cc(Nc2nccc(-c3ccc4c(c3)CN(C3COC3)CC[C@H]4NC(=O)c3cn(C(C)(C)C)nn3)n2)cn1 | item: plasma cell count | human, clinical trial, whole blood | 50 mg twice daily, follow-up | – | percent change from baseline | 87.4% |
| CCOc1c([C@H](C)n2nc(C)c3c(N)ncnc32)cc(Cl)c(F)c1[C@@H]1CNC(=O)C1 | – | patients with B-cell malignancies, plasma | oral, 30 mg, day 15, monotherapy | – | half-life geometric mean | 9.1 h |
| CCc1nc(C(N)=O)c(Nc2ccc(N3CCC(N4CCN(C)CC4)CC3)c(OC)c2)nc1NC1CCOCC1 | – | Japanese patients, plasma | oral, 40 mg, cycle 0 day -2, single dose, mean | – | Cmax | 29.8 ng/mL |
| Cc1cccc(CNC(=O)c2cn(CCNC(=O)c3ccccc3S)c3cc4c(cc3c2=O)OC(F)(F)O4)n1 | – | Sprague-Dawley rat, male, whole blood | intramuscular, 10 mg/kg of parent compound | – | AUC(0-t) | 4810 ± 2220 ng·h/mL |
| C=CC[C@@H]1/C=C(\C)C[C@H](C)C[C@H](OC)[C@H]2O[C@@](O)(C(=O)C(=O)N3CCCC[C@H]3C(=O)O[C@H](/C(C)=C/[C@@H]3CC[C@@H](O)[C@H](OC)C3)[C@H](C)[C@@H](O)CC1=O)[C@H](C)C[C@@H]2OC | – | kidney transplant recipients, whole blood | oral, dose not given, late post-transplant phase | – | patients with subtherapeutic C0 | 25% |
| COC[C@@H](CC(C)C)NC(=O)c1ccc(C)c(C)c1 | – | Sprague-Dawley rats, plasma | oral, 10 mg/kg | baseline: female over male | AUC(0-t) ratio | 1.37 |
| COc1cc2nccc(Oc3ccc(NC(=O)c4cc5c(n(-c6ccccc6)c4=O)CCCC5=O)nc3)c2cc1OC | – | relapsed or refractory AML | oral, all dose levels | – | grade ≥3 Hypophosphatemia patients | 15% |
| CCO[C@H]1CCN(Cc2c(OC)cc(C)c3[nH]ccc23)[C@H](c2ccc(C(=O)O)cc2)C1 | – | PNH patients, active haemolysis | oral, 200 mg, 8 weeks, treatment | – | incidence impaired fasting glucose | 0% |
| CCO[C@H]1CCN(Cc2c(OC)cc(C)c3[nH]ccc23)[C@H](c2ccc(C(=O)O)cc2)C1 | – | human moderate hepatic impairment, plasma | oral, 200 mg single dose, mean | – | total Cmax | 3310 ng/mL |
| COc1ccnc(C(=O)NCC(=O)O)c1O | aerobic dark soil incubation | silt loam soil | 20 °C, persistence endpoint | – | DT50 | 5.62 days |
| OC[C@H]1O[C@@H](c2ccc(Cl)c(Cc3ccc(O[C@H]4CCOC4)cc3)c2)[C@H](O)[C@@H](O)[C@@H]1O | – | Japanese type 1 diabetes patients, blood | 2.5 mg, day 28 | baseline: baseline | change in Magnesium | 0.1 mEq/L |
